Results pooled from the literature.
Numbered parts are unrelated; each lists some results of a single study. Changes are numbered by the printed parent chain.

Study 1
Target: Interferon regulatory factor 3, full length, phosphomimetic (IRF3, Homo sapiens, UniProt Q14653, residues 1-427, S386D/S396D/S398D/S402D/T404D/S405D)
Technique: protein-binding microarray
Form: double-stranded DNA, one strand shown
Matrix: in vitro
Concentration: 2540 nM top
Notes: 60-bp whole probe
Added: salmon DNA 0.4 mg/ml
Baseline: random background probes
Direction: higher = stronger binding
All sequences stand within: GCCTAGCAC … GTCTTGATTCGCTTGACGCTGCTG
Residues (chain): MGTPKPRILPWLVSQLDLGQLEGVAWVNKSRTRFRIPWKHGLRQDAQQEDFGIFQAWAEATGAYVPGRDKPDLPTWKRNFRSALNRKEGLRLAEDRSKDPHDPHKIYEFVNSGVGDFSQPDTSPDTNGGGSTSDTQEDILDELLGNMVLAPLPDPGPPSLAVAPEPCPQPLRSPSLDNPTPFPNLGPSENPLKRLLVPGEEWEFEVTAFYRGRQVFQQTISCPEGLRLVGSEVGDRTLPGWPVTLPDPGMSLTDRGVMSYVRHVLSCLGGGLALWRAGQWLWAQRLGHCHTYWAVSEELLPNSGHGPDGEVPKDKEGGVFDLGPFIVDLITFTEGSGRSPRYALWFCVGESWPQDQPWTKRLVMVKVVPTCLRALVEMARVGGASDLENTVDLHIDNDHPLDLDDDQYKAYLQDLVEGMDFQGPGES
Strand	fitted relative affinity [z-score]
TTAGGTTTCGGTTCCGGCTAGTGCTAG	10.7
TTAGATATCAGTCTCGATTGGTGCTAG	1.14
TTGGGTTTCCTTTCCCTTTAGTGCTAG	9.51
CATATTCTCTTCTTGCATCTGTGCTAG	2.64
TTAGGTCTCCTTCTCCTATAGTGCTAG	4.77
GACGGTCTCGGTCTCGGGCCGTGCTAG	0.906
GACGCTCTCGGTCTCGGGACGTGCTAG	0.302
GACGGTTTCCTTATCATGACGTGCTAG	7.77
TCAGTCTTCACTCTGCTACTGTGCTAG	0.614
TCATGCTTTCTTTTATGACTGTGCTAG	0.947
GACGATTTCAGCTTCGAGACGTGCTAG	0.847
TCAGGTCTCGCTTCATCACTGTGCTAG	0.699
CTTTCTGTCAGTTTTGAGCTGTGCTAG	5.01
TTAGGTATGGACTTTCGGTTAGTGCTA	1.03
TCACTTCCCCATCTTGTACTGTGCTAG	2.74

Study 2
Target: Sal-like protein 4, full length isoform A (SALL4, Homo sapiens, UniProt Q9UJQ4, residues 1-1053)
Chain of UniProt Q9UJQ4 (whole entry, looked up): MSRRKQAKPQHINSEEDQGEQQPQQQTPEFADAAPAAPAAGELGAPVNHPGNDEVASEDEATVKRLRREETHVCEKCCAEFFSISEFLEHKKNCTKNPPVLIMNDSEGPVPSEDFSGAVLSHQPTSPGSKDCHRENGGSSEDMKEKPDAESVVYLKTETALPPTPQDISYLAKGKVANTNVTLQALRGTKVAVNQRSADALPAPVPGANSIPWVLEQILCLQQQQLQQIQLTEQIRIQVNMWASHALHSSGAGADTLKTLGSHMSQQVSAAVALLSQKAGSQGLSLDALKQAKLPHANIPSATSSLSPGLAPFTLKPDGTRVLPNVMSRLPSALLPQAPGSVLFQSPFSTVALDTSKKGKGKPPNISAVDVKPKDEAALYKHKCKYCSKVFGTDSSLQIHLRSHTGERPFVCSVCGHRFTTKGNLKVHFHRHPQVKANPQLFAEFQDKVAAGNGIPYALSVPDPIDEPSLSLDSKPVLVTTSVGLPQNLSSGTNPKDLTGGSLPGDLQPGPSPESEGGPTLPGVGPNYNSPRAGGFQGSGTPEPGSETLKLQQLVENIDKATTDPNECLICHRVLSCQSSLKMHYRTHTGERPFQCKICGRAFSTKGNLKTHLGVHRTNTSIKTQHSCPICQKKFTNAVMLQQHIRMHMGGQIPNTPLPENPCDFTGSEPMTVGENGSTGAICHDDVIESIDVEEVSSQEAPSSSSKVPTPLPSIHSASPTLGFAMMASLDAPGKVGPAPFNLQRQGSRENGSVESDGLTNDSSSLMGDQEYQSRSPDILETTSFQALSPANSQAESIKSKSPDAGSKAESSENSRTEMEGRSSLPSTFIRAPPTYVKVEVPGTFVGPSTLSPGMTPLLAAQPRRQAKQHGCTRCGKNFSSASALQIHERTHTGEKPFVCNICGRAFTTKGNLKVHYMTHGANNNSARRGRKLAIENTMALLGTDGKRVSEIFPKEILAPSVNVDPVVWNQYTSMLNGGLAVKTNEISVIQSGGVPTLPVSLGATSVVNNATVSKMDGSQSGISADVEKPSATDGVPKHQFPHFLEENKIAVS
Technique: universal PBM
Form: double-stranded DNA, one strand shown
Matrix: in vitro
Concentration: 600 nM
Notes: 8-mer, flanks averaged, mean of replicates
Direction: higher = stronger binding
Strand	E-score
ACCTACGG	-0.363
ATTGAGAC	0.134
CTAGCTAG	-0.0493
CTTGCTAA	0.063
CCGCGTGA	-0.162
AACGCGGA	-0.149
GATGTCGC	-0.0941
CCGGCGTC	-0.365
GAACGGTC	-0.196
GCCCTTAC	-0.122
CTAATGCC	-0.0189
GTCAAAGA	0.238
CCTTCAAA	0.148
AAGGCTCT	-0.153
GAAAGTGA	0.172
CAGGTTCC	-0.343
GCCGACGC	-0.266
AGTTCTGA	0.121
AAAACAGT	0.272
ATAGTAAT	0.34
CTTTGGCA	-0.0985
CGTGTGGC	-0.179
GGGTATAC	-0.0725

Study 3
Target: CREBZF, bZIP domain (human)
Technique: DHFR protein complementation
Matrix: yeast
Notes: single substitutions, most at no-binding floor
Baseline: wild-type JUN-FOS pair
Direction: higher = stronger binding
Starting sequence: JUN, bZIP domain (human); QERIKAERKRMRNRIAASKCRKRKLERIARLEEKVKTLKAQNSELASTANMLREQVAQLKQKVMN; partner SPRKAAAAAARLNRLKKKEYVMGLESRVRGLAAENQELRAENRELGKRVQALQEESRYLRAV
Substitution	binding fitness [natural log]
M51W	-1.36
E44N	-1.51
M51K	-1.49
K39F	-1.4
R30T	-1.5
K36D	-1.13
A57R	-1.35
V35W	-1.53
L45I	-1.48
K34S	-1.35
E54V	-1.46
K39P	-1.51
V56H	-1.53
K39H	-1.49
S47A	-1.5
A40S	-1.49
N42W	-1.51

Study 4
Target: Histone acetyltransferase KAT6A, winged helix 2, GST fusion (KAT6A, Homo sapiens, UniProt Q92794, residues 85-181)
Technique: protein binding microarray
Form: double-stranded DNA, one strand shown
Matrix: in vitro
Concentration: not given
Notes: 8-mer, flanks averaged, mean of 2 arrays, mostly near background
Baseline: not given
Direction: higher = stronger binding
Construct (chain): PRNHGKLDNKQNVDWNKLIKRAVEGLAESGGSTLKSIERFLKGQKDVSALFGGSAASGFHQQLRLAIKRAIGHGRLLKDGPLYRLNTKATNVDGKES
Strand	E-score
AAAAATTC	-0.0941
ATATAAAG	-0.0494
ATCCAGCG	0.121
CCCGCGAC	0.219
AGTGGCAC	-0.0655
GAGATTGA	-0.105
CCCGCTTC	0.0498
AAAGCGCA	0.021
AAACAAAA	-0.0874
TCTGGCAA	-0.0217
GACGTCAA	-0.06
CATACTCA	-0.0334
ATCACCAT	-0.0842
TAATAGCA	0.09
AGTGTGAT	-0.0321
CTATCTAC	-0.151
GCACGCTA	-0.0992
CGATTTAA	0.0567
AGATAAAC	0.113
ACCAGCGT	0.105
AAAGATCT	-0.0773
GCCCCTGA	0.118
AGGTGACT	0.0139
CCACGGAG	0.128
TGTCTAAA	0.132

Study 5
Target: CCNA1, cyclin fold, Cln2 fusion (human)
Technique: yeast growth competition, sequencing
Matrix: yeast
Notes: weak parent motif
Baseline: not given
Direction: higher = stronger binding
Starting sequence: CDC6 docking peptide (human); TLKGRRLVFDNQL
Substitution	normalised enrichment score
F9A	0.287
D10N	0.601
T1Q	-0.0858
N11Q	0.0107
V8P	0.0709
L2R	0.567
L13V	0.0965
D10H	0.156
L2S	-0.194
R5A	0.382
G4T	0.0553
K3E	0.0306
R6T	0.359
Q12K	-0.143
L7C	0.106
N11G	0.19
L13F	0.499
F9Q	0.37

Study 6
Target: ABI1, truncated, D143A, DHFR fusion (Arabidopsis thaliana)
Technique: DHFR PCA, deep sequencing
Matrix: yeast
Notes: methotrexate growth selection, single substitutions
Added: (+)-ABA 200 µM
Baseline: wild-type fitted maximum
Direction: higher = stronger binding
Starting sequence: PYL1, truncated, DHFR fusion (Arabidopsis thaliana); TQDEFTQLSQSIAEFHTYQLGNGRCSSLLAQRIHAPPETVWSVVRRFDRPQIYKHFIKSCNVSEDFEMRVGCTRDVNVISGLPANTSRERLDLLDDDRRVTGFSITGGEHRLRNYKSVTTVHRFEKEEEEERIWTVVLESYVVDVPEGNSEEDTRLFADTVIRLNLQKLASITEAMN
Substitution	relative binding score [%]
T39G	83.4
I12M	79.6
A35D	-1.1
Q31M	73.8
E139Q	99.4
M176H	94
E174M	81.3
E64I	95.4
G108C	39.9
V137K	-3.07
P146V	59.4
W41Y	60.7
V70T	96.8
A30E	93.3
V62R	62.5

Study 7
Target: Ras GTPase-activating protein-binding protein 1, RRM domain (G3BP1, Homo sapiens, UniProt Q13283)
Chain of UniProt Q13283 (whole entry, looked up): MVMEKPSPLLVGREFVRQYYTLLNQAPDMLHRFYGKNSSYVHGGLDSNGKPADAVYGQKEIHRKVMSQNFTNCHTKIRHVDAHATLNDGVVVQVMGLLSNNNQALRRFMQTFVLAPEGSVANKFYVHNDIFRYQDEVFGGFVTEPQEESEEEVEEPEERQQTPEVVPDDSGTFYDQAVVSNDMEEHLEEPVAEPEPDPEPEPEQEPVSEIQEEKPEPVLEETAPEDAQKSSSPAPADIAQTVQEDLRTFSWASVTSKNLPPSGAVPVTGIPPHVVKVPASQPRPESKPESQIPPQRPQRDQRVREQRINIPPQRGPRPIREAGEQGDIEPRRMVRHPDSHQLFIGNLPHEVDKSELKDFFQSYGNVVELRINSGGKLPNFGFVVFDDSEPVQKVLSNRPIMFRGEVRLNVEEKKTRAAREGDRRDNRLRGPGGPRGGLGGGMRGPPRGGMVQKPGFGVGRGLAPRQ
Technique: RNA Bind-n-Seq
Form: RNA
Matrix: in vitro
Concentration: 1 µM
Notes: whole 134-nt RNA, ends assumed
Added: 150 mM KCl
Baseline: input library
Direction: higher = stronger binding
All sequences stand within: GGGAGUUCUACAGUCCGACGAUC … UGGAAUUCUCGGGUGUCAAGG
Strand	log2 enrichment
GCAGGAAGUAAAAACAAAUGGAAAUGCUUCGGAUAGUGGCAGGGGUGGGGGUUGCUAAGGAAAGGGUGGGAUGGGAGAAAGUAAAGAGUU	0.687
GCAGGAAGUAAAAACAAAUGGAAAUGCUUCGGAUAGUGGCAGGGGUGGGGGUUGCUAAGGAAAGGGUGGGAUGGGAGUGGGUAAACAGUU	0.46
UCCUGUGCUACACAUCGUAUGUACCGAAUCGGGAAAGGGUUUUUUUGGGAAAAAAAGGGAAAGUAUUAUGUUACGCCGUUCGGAUCUGCA	-0.117
UGUAGAAAAGGCACUGGACUAACACUUGGCUGUAUCUUGUAACAGGCAUGUUAUGUUACCCAGAGAACUUUCCAAACAAGUACCUAAAAC	-0.0731
CACAGACAACAUGCACCCACACAGACACAGAGGGAAGGGGUUGGGAUGGGGACAGGGUGCACAGCAGGGCGGGGUAGGACCCCAGCCCCU	-0.279
AAGUCCUGUGCUACACAUCGUAUGUACCGAAUCGGGGCCCGGCCCGGGGCCCGGGGAAAGUAUUAUGUUACGCCGUUCGGAUCUGCACUU	-0.898
UGGGCUGGAUGGCUCAGUUCCCCCAGACCUGGACUGGAAGGGCCAGCCACCUGCACCUCCUAAAAAGGGACUGCUGCAGAGACUCUUCAG	-0.423
UGGCCCUGGUGGCAUGCGGGGAGGAAGAGGUGCCCUCAUGGAUCGUGGUGGUCCCGGUGGAAUGUUCAGAGGUGGCCGUGGUGGAGACAG	0.685
GCAGGAAGUAAAAACAAAUGGAAAUGCUUAAAAUAGUGGCAGGGGUGGGGGUUGCUAAGGAAAGGGUGGGAUGGGAGUGGGUAAAGAGUU	1.37
GCAGGAAGUAAAAACAAAUGGAAAUGCUUCGGAUAGUGGCAGGGGUGGGGGUUGCUAAGGAAAGGGUGGGAAAAGAGUGGGUAAAGAGUU	1.88
AGUCCUGUGCUACACAUCGUAUGUACCGAAUCGGGAAAAAAAGGGAGGGAAAAAGGGAAAGUAUUAUGUUACGCCGUUCGGAUCUGCACU	0.515
UAGUCACCUACUGCCACCUUCGAAAAACACGGAGAGCACCUACCCAGAGGAGAAGGUAGAUUUGGAGUAAGCCGCCGUCGACAUAAUUCC	-0.0143
ACCAUGCAGGUGGGCAUCUUUGGGAAAUGGGGCAAGGGGGGGAUAGGGAGGGGGGUAACACUUUGGGAACAGGUGGUCCCAGGUCGUUUC	-0.333
GCAGGAAAUAAAAACAAAUGGAAAUGCUUCGGAUAGUGGCAGGGGUGGGGGUUGCUAAGGAAAGGGUGGGAUGGGAGUGGGUAAAGAGUU	1.22

Other studies, line by line
Molecule	target	test	system	setting	how to read	quantity	result
PhoQ, residues 284 288 289 292 302 303 SCKMEA	PhoP, residues 12 14 15 18 19 NFCKL (Escherichia coli, UniProt P23836)	Sort-seq, measured: YFP reporter	E. coli	PhoQ-PhoP variant library, added: 10 µM Mg2+	baseline: high Mg2+ state, higher = stronger signaling	fold induction	2.42

For quick reference, copied from above (study 1):
Strand	fitted relative affinity [z-score]
CATATTCTCTTCTTGCATCTGTGCTAG	2.64
TTAGGTTTCGGTTCCGGCTAGTGCTAG	10.7
CTTTCTGTCAGTTTTGAGCTGTGCTAG	5.01
TTAGATATCAGTCTCGATTGGTGCTAG	1.14
GACGCTCTCGGTCTCGGGACGTGCTAG	0.302
GACGATTTCAGCTTCGAGACGTGCTAG	0.847
TCAGTCTTCACTCTGCTACTGTGCTAG	0.614
TCATGCTTTCTTTTATGACTGTGCTAG	0.947
